Published values of several laboratories.
Several values in a cell are separate wells, animals, samples, runs or records.
UniProt Q92851, sequence (whole entry, looked up): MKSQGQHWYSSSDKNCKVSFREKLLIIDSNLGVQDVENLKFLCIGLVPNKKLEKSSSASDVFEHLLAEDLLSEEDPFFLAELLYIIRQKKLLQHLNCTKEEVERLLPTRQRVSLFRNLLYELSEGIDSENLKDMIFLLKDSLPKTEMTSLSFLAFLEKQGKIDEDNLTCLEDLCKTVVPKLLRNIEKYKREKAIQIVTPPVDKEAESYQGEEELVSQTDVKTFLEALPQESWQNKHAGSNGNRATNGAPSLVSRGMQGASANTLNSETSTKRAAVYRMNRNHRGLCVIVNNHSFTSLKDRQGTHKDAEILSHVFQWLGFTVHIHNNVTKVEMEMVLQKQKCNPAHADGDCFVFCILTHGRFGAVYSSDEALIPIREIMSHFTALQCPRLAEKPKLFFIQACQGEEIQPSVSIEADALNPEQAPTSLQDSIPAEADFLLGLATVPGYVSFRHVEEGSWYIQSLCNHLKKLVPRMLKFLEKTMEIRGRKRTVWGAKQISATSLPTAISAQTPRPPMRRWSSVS
UniProt Q14790, sequence (whole entry, looked up): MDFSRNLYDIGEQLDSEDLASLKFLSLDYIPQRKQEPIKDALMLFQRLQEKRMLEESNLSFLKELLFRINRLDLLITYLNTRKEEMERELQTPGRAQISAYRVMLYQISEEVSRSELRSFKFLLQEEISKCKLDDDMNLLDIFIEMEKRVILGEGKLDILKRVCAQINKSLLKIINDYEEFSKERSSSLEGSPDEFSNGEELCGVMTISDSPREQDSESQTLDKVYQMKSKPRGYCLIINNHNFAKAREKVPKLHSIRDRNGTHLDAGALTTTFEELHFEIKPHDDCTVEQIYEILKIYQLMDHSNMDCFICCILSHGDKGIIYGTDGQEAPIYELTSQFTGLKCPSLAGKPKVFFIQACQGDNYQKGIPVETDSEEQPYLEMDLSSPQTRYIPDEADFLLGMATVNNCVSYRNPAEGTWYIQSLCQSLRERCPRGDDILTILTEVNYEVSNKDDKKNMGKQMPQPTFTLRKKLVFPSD

The viability of `Cc1ccc(C(NC(=O)c2cc(-c3ccccc3)n(-c3ccccc3)n2)c2ccncc2)cc1` (stereo not shown) is reported as over 95% (Vero; cell growth or viability; 12.5 µM).
`c1cc2nc(c1)-c1cccc(n1)CCCc1ccc(cc1)OCCCCCCOc1ccc(cc1)CCC2` has a viability of 51.5% (HEK293; cell growth or viability, MTT; 200 µM, 24 h).
`CC(=O)N[C@@H](Cc1c[nH]c2ccccc12)C(=O)N[C@@H](CCCCN)C(=O)N[C@@H](CCC(=O)O)C(=O)N[C@@H](CC(=O)O)C(=O)COC(=O)c1c(C)cccc1C` has a kinact/KI of 14500 M⁻¹ s⁻¹ (Caspase-10 (CASP10, Homo sapiens, UniProt Q92851); enzyme activity, inhibitor).
`O=CCNCCOn1c(=O)n(OCCNCCO)c(=O)n(OCCNCCOn2c(=O)n(OCCNCCO)c(=O)n(OCCNCCO)c2=O)c1=O` has a viability of 43.9% (HUVEC; cell growth or viability, MTT; 12.5 µg/mL, 48 h).
`Cc1ncsc1-c1ccc(C(C)NC(=O)C2CC(O)CN2C(=O)C(NC(=O)CCCCCCCCCCN2CCCC(Nc3ncc(Cl)c(Nc4ccccc4S(=O)(=O)C(C)C)n3)C2)C(C)(C)C)cc1` (stereo not shown): “log2 fold change” -1.04 (22Rv1; RNA-seq, refers to: NBPF9 mRNA; concentration not given; baseline: DMSO).
With `COc1cc(N2CCN(C(=O)CCOCCNC(=O)[C@@H]3CCCN3)CC2)ccc1Nc1ncc(Cl)c(Nc2ccccc2P(C)(C)=O)n1` the viability was 44% and 39% and 50% (NCI-H3122; CCK-8; 0.75 µM, 48 h).
`COC1CN([C@H]2CC[C@H]([C@@]3(C)Oc4c(Cl)cc(C(=O)NCc5c(SC)cc(C)[nH]c5=O)c(C)c4O3)CC2)C1` — result for “log2 fold change”: 1.38 (RNA-seq, refers to: SH3D19; human, whole blood; dose not given, 24 h; baseline: pretreatment baseline).
`CN1CCCNC(=O)c2cccc(c2)C(=O)NCCCN(C)CCCNc2cccc3c2C(=O)c2cccc(c2C3=O)NCCC1` has a viability of 85.9% (Ca9-22; CCK-8; 0.05 µM, 48 h; baseline: untreated).
`C=CC(=O)Nc1cccc(Cn2ncc3cnc(Nc4cnn(CCOC)c4)nc32)c1` gave a binding of 7.7% (human ABL1(Y253F)-phosphorylated; KINOMEscan; 100 nM; baseline: control).
For `CC(=O)N[C@@H](Cc1ccc(N)cc1)C(=O)N[C@@H](CCCC(=O)O)C(=O)N[C@@H](CC1CCCCC1)C(=O)N[C@@H](CC(=O)O)C(=O)COC(=O)c1c(C)cccc1C`, the kinact/KI was 374000 M⁻¹ s⁻¹ (Caspase-8 (CASP8, Homo sapiens, UniProt Q14790); enzyme activity, inhibitor).
`N=C(N)NCCC[C@@H]1NC(=O)[C@H](CCCNC(=N)N)NC(=O)[C@@H](CCCNC(=N)N)NC(=O)[C@@H](CCCNC(=N)N)NC(=O)[C@@H](C(c2ccccc2)c2ccccc2)NC(=O)[C@@H](Cc2c[nH]c3ccccc23)NC(=O)[C@@H](C(c2ccccc2)c2ccccc2)NC1=O` has a viability of 55% (HEK293; cell growth or viability, MTS; 200 µg/mL, 24 h).
`O=C(Nc1cccc(CO)c1)c1cc(-c2ccccc2)n(-c2ccccc2)n1` gave a viability of over 95% (Vero; cell growth or viability; 12.5 µM).
With `CC[C@H](C)[C@@H](C(=O)N[C@@H](Cc1ccc(O)cc1)C(=O)N1CCC[C@H]1C(=O)N[C@@H](Cc1ccccc1)C(=O)O)n1cc(C(Cc2ccc(O)cc2)NC(=O)[C@@H](NC(=O)[C@H](CCCNC(=N)N)NC(=O)[C@@H](N)CC(=O)O)C(C)C)nn1` (stereo partly shown) the viability was 88.1% (HEK293; cell growth or viability, MTT; 50 µM, 24 h).
For `COc1cc(N2CCN(C(=O)C3CCCN3)CC2)ccc1Nc1ncc(Cl)c(Nc2ccccc2P(C)(C)=O)n1` (stereo not shown), the viability was 61% and 59% (NCI-H3122; cell growth or viability, CCK-8; 25 nM, 48 h).
`N=C(N)NCCC[C@@H]1NC(=O)[C@H](CCCNC(=N)N)NC(=O)[C@@H](CCCNC(=N)N)NC(=O)[C@@H](CCCNC(=N)N)NC(=O)[C@@H](Cc2ccc3ccccc3c2)NC(=O)[C@H](Cc2c[nH]c3ccccc23)NC(=O)[C@@H](Cc2ccc3ccccc3c2)NC1=O` has a viability of 74 to 77% (human liver cells; MTS; 200 µg/mL, 24 h).
For `CC(=O)N[C@@H](Cc1c[nH]c2ccccc12)C(=O)N[C@@H](Cc1c[nH]c2ccccc12)C(=O)N[C@@H](Cc1c[nH]c2ccccc12)C(=O)N[C@@H](Cc1c[nH]c2ccccc12)C(=O)NCCCC[C@@H]1NC(=O)[C@H](CCCNC(=N)N)NC(=O)[C@H](CCCNC(=N)N)NC(=O)[C@H](CCCNC(=N)N)NC(=O)[C@H](CCCNC(=N)N)NC(=O)[C@H](CCCNC(=N)N)NC1=O`, the viability was at least 74% (SK-OV-3; MTS; concentration not given, 24 h, up to 15 µM).

Repeated from above:
`Cc1ncsc1-c1ccc(C(C)NC(=O)C2CC(O)CN2C(=O)C(NC(=O)CCCCCCCCCCN2CCCC(Nc3ncc(Cl)c(Nc4ccccc4S(=O)(=O)C(C)C)n3)C2)C(C)(C)C)cc1` (stereo not shown): “log2 fold change” -1.04 (22Rv1; RNA-seq, refers to: NBPF9 mRNA; concentration not given; baseline: DMSO).
